Assay results from different studies.
Each numbered part is a random draw from the data of one study; scales do not carry over between parts.

Sample 1
Target: Interferon regulatory factor 7, full length, phosphomimetic (IRF7, Homo sapiens, UniProt Q92985, residues 1-503, S101K/S471D/S472D/S475D/S476D/S477D/S483D/S484D/S487D)
Chain of UniProt Q92985 (whole entry, unmodified, looked up): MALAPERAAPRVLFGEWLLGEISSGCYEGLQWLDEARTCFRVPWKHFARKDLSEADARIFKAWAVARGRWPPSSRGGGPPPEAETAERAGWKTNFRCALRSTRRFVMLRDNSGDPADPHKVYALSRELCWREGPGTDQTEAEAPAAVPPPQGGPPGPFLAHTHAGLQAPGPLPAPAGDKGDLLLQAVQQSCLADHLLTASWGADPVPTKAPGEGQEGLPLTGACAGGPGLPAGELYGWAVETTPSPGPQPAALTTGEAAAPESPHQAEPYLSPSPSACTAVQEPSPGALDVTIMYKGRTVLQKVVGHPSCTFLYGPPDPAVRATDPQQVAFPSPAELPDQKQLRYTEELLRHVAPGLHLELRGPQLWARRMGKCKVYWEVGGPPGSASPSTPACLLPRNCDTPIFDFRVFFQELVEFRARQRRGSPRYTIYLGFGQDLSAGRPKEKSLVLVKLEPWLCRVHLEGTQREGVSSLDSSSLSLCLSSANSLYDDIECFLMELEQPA
Method: protein-binding microarray
Form: double-stranded DNA, one strand shown
Sample: in vitro
Concentration: 250 nM
Notes: 60-bp whole probe
Added: salmon DNA 0.4 mg/ml
Relative to: random background probes
Direction: higher = stronger binding
Constant ends, left off below: GCCTAGCAC … GTCTTGATTCGCTTGACGCTGCTG
Sequence | log fluorescence
TAAGGTTTCGGACTGGGTTAGTGCTAG | 4.27 z-score
GACAGTATCGGGTATCGGGACGTGCTA | 0.127 z-score
TCACTTCTTTTTTTTCTACTGTGCTAG | 1.26 z-score
TACGGACTGCTTTTCCTGACGTGCTAG | 0.101 z-score
GACTATTTCGGGACTGGAGACGTGCTA | 0.782 z-score
TTAGGTTTCGGGTATCGGTTAGTGCTA | 7.92 z-score
TCAAGTCTCAAAATTAGACTGTGCTAG | 0.176 z-score
AAGGGTCTCTTGTTCTCTCTGTGCTAG | 0.223 z-score

Sample 2
Target: Histone acetyltransferase KAT6A, both winged helices, GST fusion (KAT6A, Homo sapiens, UniProt Q92794, residues 1-181)
Method: protein binding microarray
Form: double-stranded DNA, one strand shown
Sample: in vitro
Concentration: not given
Notes: 8-mer, flanks averaged, mean of 2 arrays, mostly near background
Relative to: not given
Direction: higher = stronger binding
Residues (chain): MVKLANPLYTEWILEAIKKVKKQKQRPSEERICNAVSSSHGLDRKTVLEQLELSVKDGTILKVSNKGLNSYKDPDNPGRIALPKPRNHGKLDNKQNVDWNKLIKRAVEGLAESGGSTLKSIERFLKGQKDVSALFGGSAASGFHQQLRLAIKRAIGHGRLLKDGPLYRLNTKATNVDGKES
Sequence | E-score
ACCCGAAA | 0.115
AGACCGTA | 0.0899
AACATGTA | 0.0206
AATGTAGG | -0.182
CTAGCAGA | -0.238
GAGCCATC | -0.244

Sample 3
Target: Sal-like protein 4, full length isoform B (SALL4, Homo sapiens, UniProt Q9UJQ4-2, residues 1-616)
Method: universal PBM
Form: double-stranded DNA, one strand shown
Sample: in vitro
Concentration: not given
Notes: 8-mer, flanks averaged, mean of replicates
Direction: higher = stronger binding
Construct (chain): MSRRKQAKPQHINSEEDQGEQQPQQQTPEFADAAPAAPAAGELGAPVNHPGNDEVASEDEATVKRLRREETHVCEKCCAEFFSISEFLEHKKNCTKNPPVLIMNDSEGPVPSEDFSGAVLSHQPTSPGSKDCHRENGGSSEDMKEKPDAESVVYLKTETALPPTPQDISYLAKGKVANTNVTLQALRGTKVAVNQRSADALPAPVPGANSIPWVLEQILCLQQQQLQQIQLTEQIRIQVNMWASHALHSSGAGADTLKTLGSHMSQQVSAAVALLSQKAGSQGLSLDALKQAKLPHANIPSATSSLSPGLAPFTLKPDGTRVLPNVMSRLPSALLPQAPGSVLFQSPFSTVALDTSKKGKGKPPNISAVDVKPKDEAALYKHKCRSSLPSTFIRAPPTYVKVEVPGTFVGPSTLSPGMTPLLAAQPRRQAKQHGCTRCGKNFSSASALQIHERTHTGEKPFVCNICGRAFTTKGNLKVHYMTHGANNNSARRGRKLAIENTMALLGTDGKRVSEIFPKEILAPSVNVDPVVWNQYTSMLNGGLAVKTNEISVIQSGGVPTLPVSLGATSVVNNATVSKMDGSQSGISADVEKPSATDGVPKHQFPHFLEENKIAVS
Sequence | E-score
GGTCTAGA | -0.046
AATTGAGA | 0.162
CGATTAGA | 0.0758
CTAACATA | 0.239
AGTCACTC | -0.0812

Mixed results
Substance | target | assay | test system | conditions | scale | quantity | value
PhoQ, residues 284 288 289 292 302 303 SVHLDV | PhoP, residues 12 14 15 18 19 HEGLL (Escherichia coli, UniProt P23836) | Sort-seq, measured: YFP reporter | E. coli | PhoQ-PhoP variant library, added: 10 µM Mg2+ | relative to: high Mg2+ state, higher = stronger signaling | fold induction | 6.64

For quick reference, copied from above (sample 1):
Sequence | log fluorescence
TAAGGTTTCGGACTGGGTTAGTGCTAG | 4.27 z-score
